Measured values of several laboratories.
Lines come from different studies, so protocols differ. Numbers after ± are the reported error.
Organism: Plasmodium falciparum

Compound | test | test system | setting | IC50 [nM]
Cc1cc(NCCc2ccccc2)nc(N=C(N)Nc2ccc(Cl)cc2)n1 | parasite growth, inhibitor, SYBR Green I | 3D7 |  | 184
CC1=C(C)/C(=C/c2cc(Cc3ccc(Cl)cc3)c(C)[nH]2)N=C1c1ccc[nH]1 | parasite growth, SYBR Green fluorescence | Tm90-C2B (atovaquone-resistant), asexual blood stage | 72 h | 836
CC(C)(C)NC(=O)[C@@H]1CN(Cc2cnc3occc3c2)CCN1C[C@@H](O)C[C@@H](Cc1ccccc1)C(=O)N[C@H]1c2ccccc2C[C@H]1O | parasite growth, stage-specific treatment |  | 12 h, early to late trophozoite stage | > 10000
COc1cc(C)c(-c2ccc(O)c3c2C[C@@H](C)N[C@@H]3C)c2cccc(O)c12 (single isomer, unassigned) | asexual parasite proliferation, SYBR Green I fluorescence | clinical isolate SB_05, Mozambique |  | 17.3 ± 1
Cc1ccc2oc(-c3cc(NC(=O)Cc4ccccc4)ccc3Cl)nc2c1 | parasite growth, inhibitor, SYBR Green I | 3D7 |  | 32200
Cc1[nH]c(/C=C2\N=C(c3ccc[nH]3)C3=C2OCCO3)cc1Cc1ccc(Cl)cc1 | parasite growth, SYBR Green fluorescence | Dd2 (multidrug-resistant), asexual blood stage | 72 h | 9.78
COc1cc(CO)c(-c2ccc3c(c2O)[C@@H](C)N[C@H](C)C3)c2cccc(O)c12 | asexual parasite proliferation, SYBR Green I fluorescence | 7G8 |  | 20.2 ± 8.9
CCC1=C(CC)/C(=C/c2cc(Cc3ccc(OC(F)(F)F)cc3)c(C)[nH]2)N=C1c1ccc[nH]1 | parasite growth, SYBR Green fluorescence | Tm90-C2B (atovaquone-resistant), asexual blood stage | 72 h | 213
O=C(CC1NCCCC1O)Cn1cnc2cc(Br)c(Cl)cc2c1=O (stereo not drawn) | parasite growth | conditional knockdown control line | 120 h, added: 12.5 nM anhydrotetracycline | 0.4
